Assay results gathered from unrelated publications.
Every numbered part comes from another study and shows a few of its results, in no order. Positions count from the first letter of the parent shown.

Study 1 — method: DHFR PCA, deep sequencing; medium: yeast; together with: (+)-ABA 0.11 µM; reference: wild-type fitted maximum; reading: higher = stronger binding
Target: ABI1, truncated, D143A, DHFR fusion (Arabidopsis thaliana)
Setting: methotrexate growth selection, single substitutions
Starting sequence: PYL1, truncated, DHFR fusion (Arabidopsis thaliana); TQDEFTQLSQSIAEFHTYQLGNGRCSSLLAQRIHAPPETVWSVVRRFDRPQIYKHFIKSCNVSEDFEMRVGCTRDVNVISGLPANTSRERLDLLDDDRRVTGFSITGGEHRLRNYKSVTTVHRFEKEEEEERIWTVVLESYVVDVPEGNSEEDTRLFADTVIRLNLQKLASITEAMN
Substitution	relative binding score
R74V	0.426%
E147S	10.9%
R49A	35.2%
V44T	-6.17%
N114Q	-11.6%
N61R	52.6%

Study 2 — method: protein binding microarray; molecule type: double-stranded DNA, one strand shown; medium: in vitro; concentration: not given; reference: not given; reading: higher = stronger binding
Target: Histone acetyltransferase KAT6A, winged helix 1, GST fusion (KAT6A, Homo sapiens, UniProt Q92794, residues 1-85)
Setting: 8-mer, flanks averaged, mean of 2 arrays, mostly near background
Residues (chain): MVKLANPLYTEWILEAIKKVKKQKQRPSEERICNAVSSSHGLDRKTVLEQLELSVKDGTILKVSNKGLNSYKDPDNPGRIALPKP
Sequence	E-score
ATACATGG	-0.197
AATCCCCC	-0.0534
AGAACTCG	-0.125
GAAGCGAC	0.132
CAAGCAGC	-0.122

Study 3 — method: universal PBM; molecule type: double-stranded DNA, one strand shown; medium: in vitro; concentration: 600 nM; reading: higher = stronger binding
Target: Sal-like protein 4, full length isoform A (SALL4, Homo sapiens, UniProt Q9UJQ4, residues 1-1053)
Sequence of UniProt Q9UJQ4 (whole entry, looked up): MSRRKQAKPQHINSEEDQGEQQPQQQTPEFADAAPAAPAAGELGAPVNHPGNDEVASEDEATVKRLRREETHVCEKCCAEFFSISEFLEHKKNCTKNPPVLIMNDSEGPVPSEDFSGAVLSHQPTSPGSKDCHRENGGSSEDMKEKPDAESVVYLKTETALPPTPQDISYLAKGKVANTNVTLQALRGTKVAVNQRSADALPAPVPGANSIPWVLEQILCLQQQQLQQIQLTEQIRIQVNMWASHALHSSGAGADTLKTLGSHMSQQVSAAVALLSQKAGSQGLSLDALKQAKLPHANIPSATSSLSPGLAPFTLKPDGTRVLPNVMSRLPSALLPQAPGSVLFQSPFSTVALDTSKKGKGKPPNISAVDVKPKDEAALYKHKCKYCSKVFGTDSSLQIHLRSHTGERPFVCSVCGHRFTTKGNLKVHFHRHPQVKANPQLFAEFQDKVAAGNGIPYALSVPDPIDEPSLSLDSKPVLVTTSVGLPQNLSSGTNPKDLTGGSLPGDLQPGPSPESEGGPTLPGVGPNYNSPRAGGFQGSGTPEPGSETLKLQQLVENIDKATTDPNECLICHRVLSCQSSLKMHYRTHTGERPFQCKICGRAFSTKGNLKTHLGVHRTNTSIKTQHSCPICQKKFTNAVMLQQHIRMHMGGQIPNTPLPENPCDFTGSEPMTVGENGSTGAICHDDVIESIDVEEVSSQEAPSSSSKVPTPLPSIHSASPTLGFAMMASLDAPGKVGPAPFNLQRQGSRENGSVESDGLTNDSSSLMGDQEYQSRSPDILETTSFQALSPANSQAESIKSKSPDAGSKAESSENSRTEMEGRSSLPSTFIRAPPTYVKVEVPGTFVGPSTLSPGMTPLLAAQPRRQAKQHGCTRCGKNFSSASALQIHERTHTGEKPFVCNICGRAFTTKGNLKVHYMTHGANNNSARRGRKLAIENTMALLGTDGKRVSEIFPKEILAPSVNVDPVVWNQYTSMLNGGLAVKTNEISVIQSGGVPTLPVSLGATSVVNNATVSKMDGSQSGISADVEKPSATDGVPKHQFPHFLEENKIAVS
Setting: 8-mer, flanks averaged, mean of replicates
Sequence	E-score
ATTGGGGG	0.00464
ATGCGTGC	0.0359
GAGGCGCC	-0.369
CCCGACAC	-0.335
ACTCCAAA	0.0462
CAGCGTTA	-0.0838
CCATATTC	0.255

Mixed results
Molecule	target	assay	system	setting	how to read	endpoint	result
PhoQ, residues 284 288 289 292 302 303 SACGEM	PhoP, residues 12 14 15 18 19 TPWLV (Escherichia coli, UniProt P23836)	Sort-seq, item: YFP reporter	E. coli	PhoQ-PhoP variant library, together with: 10 µM Mg2+	reference: high Mg2+ state, higher = stronger signaling	fold induction	2.99

A few entries again (study 2):
Sequence	E-score
AGAACTCG	-0.125
